Experimental data collected from several papers.
A part holds a random share of what one study measured. Substitutions count along the parent as printed.

Series 1
Target: Sal-like protein 4, full length isoform B (SALL4, Homo sapiens, UniProt Q9UJQ4-2, residues 1-616)
Technique: universal PBM
Molecule type: double-stranded DNA, one strand shown
Medium: in vitro
Tested at: not given
Setting: 8-mer, flanks averaged, mean of replicates
Direction: higher = stronger binding
Strand | E-score
CATTTAGA | 0.0614
TAACTCTA | 0.0836
CCCTCATA | 0.0419
ACAAGTTC | -0.0638
ACGTCGAT | 0.021
AACGCACA | 0.092
CAGCTCAG | -0.31
ATAAAACA | 0.349
AAACCATT | 0.189
AACAGACC | 0.0711
AAGGGGGC | -0.219
ATTTTAGA | 0.215
CGTAGAAG | 0.0309
ATTATGCA | 0.314
TGTACAAA | 0.289
CATATGCC | 0.2

Series 2
Target: CCNF, cyclin fold, Cln2 fusion (human)
Technique: yeast growth competition, sequencing
Medium: yeast
Setting: strong parent motif
Baseline: not given
Direction: higher = stronger binding
Starting sequence: CDC6 docking peptide (human); TLKGRRLVFDNQL; partner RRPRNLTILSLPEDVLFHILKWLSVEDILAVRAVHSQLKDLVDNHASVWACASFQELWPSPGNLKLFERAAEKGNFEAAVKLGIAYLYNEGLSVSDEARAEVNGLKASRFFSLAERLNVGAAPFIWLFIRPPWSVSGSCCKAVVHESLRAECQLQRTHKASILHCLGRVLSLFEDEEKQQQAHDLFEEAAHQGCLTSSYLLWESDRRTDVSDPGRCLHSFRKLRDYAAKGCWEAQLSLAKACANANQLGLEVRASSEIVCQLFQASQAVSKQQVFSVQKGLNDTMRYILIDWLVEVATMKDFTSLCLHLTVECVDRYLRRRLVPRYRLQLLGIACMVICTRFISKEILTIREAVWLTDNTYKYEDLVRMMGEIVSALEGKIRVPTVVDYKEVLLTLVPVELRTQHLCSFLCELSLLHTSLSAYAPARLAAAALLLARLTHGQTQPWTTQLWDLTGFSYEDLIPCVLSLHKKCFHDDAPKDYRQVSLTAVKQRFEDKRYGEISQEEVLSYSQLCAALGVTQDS
Change | normalised enrichment score
TLKGRRLVFDTQL [N11T] | 8.75
TLKGRRLVFDNQN [L13N] | 8.42
TLKGRRLVFDNHL [Q12H] | 9.85
TFKGRRLVFDNQL [L2F] | 5.55
TLKGRGLVFDNQL [R6G] | 2.39
TLKGRRLVFDNQG [L13G] | 7.98
TLKGRSLVFDNQL [R6S] | 4.93

Series 3
Target: Histone acetyltransferase KAT6A, winged helix 2, GST fusion (KAT6A, Homo sapiens, UniProt Q92794, residues 85-181)
Technique: protein binding microarray
Molecule type: double-stranded DNA, one strand shown
Medium: in vitro
Tested at: not given
Setting: 8-mer, flanks averaged, mean of 2 arrays, mostly near background
Baseline: not given
Direction: higher = stronger binding
Construct (chain): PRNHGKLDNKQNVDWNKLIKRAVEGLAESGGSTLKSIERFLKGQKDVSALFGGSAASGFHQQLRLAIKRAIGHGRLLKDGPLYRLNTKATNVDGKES
Strand | E-score
TCTTTGAA | -0.0249
ATATGTGC | -0.1
CACAGCTG | -0.141
ACCTGAAC | -0.16
CCACTGCG | 0.168
GTAGGTAA | -0.167
CCGGGTGC | 0.171
AAATCGCC | 0.125
CGGGGCAC | 0.103
ACGAGTAC | -0.0856
TGAGCCCA | -0.0882
AACTTAAC | 0.118
CGTGTCTA | 0.0784
AGAGGGAA | -0.0534
AGAAAGAC | -0.0427
ATCGGCAT | 0.158

Other studies, line by line
Molecule | target | test | test system | setting | scale | quantity | value
PhoQ, residues 284 288 289 292 302 303 TGYLSA | PhoP, residues 12 14 15 18 19 AQCLL (Escherichia coli, UniProt P23836) | Sort-seq, refers to: YFP reporter | E. coli | PhoQ-PhoP variant library, with: 10 µM Mg2+ | baseline: high Mg2+ state, higher = stronger signaling | fold induction | 1.98

Excerpt of the above (series 3):
Strand | E-score
CCACTGCG | 0.168
CGTGTCTA | 0.0784
CGGGGCAC | 0.103
AGAAAGAC | -0.0427
TCTTTGAA | -0.0249
ATCGGCAT | 0.158
AGAGGGAA | -0.0534
